Results pooled from the literature.
Each numbered part is a random draw from the data of one study; scales do not carry over between parts. Substitutions count along the parent as printed.
UniProt Q9UL54, sequence (whole entry, looked up): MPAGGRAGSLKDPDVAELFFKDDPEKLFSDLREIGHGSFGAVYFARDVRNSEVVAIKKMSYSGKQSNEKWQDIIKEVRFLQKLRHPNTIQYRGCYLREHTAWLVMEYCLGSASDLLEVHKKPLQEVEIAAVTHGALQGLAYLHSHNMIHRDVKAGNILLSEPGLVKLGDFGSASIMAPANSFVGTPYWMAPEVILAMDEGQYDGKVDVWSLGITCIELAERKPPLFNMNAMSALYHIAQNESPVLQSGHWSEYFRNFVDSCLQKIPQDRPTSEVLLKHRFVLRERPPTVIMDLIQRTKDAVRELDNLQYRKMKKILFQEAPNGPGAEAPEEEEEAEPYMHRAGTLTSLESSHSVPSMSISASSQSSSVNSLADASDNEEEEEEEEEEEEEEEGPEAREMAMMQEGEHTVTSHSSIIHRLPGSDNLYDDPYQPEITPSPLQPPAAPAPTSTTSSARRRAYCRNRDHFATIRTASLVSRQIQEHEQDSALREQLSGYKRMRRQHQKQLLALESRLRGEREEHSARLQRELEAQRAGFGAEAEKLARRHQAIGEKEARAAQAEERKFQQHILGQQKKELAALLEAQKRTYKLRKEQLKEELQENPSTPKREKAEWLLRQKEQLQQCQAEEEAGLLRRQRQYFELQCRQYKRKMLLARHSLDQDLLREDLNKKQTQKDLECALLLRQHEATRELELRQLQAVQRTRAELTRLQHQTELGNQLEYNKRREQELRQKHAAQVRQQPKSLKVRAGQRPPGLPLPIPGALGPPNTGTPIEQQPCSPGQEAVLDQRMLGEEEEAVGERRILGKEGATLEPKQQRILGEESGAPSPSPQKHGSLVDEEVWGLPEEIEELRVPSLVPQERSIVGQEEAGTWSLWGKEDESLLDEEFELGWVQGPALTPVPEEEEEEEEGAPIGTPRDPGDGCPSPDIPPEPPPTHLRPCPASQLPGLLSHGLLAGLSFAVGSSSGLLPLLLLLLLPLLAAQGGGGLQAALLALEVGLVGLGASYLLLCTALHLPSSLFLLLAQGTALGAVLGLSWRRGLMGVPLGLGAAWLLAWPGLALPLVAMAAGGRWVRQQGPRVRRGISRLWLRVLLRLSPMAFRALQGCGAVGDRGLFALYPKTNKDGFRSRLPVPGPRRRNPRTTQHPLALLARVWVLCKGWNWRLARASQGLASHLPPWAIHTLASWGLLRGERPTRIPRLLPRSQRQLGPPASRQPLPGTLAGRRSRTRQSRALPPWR
UniProt Q14289, sequence (whole entry, looked up): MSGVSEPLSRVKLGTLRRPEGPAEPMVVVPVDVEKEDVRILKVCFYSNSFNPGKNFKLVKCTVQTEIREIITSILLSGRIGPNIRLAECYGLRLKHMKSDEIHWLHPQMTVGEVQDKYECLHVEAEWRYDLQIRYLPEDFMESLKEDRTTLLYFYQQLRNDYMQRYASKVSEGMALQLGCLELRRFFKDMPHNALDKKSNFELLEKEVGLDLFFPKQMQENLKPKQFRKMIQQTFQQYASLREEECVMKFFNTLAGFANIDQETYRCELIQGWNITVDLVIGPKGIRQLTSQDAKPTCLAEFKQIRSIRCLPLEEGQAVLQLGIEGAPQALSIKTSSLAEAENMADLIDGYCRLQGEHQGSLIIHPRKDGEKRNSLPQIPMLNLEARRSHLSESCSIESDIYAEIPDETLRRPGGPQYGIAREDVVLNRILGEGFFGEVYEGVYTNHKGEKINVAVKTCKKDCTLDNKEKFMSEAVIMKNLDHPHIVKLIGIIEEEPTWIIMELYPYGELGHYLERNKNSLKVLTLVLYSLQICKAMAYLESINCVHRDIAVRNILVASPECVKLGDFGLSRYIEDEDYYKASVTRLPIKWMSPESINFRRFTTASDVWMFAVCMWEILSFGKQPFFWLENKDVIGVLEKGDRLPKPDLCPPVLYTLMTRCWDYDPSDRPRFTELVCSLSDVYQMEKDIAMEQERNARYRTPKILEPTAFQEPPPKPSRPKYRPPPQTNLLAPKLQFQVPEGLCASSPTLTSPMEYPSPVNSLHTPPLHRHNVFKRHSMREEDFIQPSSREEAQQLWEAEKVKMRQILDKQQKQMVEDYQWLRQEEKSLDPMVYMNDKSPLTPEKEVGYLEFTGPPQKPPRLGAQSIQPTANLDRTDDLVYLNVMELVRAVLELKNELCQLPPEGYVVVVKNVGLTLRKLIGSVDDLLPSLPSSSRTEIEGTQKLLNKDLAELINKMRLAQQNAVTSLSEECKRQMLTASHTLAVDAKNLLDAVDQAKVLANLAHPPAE
UniProt P30291, sequence (whole entry, looked up): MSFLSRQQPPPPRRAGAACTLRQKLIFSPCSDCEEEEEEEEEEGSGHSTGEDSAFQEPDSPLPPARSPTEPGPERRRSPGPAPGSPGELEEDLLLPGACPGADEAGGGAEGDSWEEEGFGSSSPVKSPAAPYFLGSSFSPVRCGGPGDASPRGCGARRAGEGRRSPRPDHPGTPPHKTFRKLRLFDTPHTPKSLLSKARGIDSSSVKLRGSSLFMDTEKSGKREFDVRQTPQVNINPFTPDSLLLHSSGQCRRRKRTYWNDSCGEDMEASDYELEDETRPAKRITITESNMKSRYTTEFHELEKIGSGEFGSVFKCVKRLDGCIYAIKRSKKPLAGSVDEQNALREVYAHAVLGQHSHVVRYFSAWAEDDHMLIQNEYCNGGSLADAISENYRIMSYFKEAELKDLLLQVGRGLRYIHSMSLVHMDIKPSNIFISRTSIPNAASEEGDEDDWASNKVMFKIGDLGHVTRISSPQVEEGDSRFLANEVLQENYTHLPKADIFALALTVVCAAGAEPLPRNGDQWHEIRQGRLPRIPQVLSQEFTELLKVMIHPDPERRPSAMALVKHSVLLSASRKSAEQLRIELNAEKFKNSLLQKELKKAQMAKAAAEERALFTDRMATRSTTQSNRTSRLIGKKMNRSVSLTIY
UniProt P11362, sequence (whole entry, looked up): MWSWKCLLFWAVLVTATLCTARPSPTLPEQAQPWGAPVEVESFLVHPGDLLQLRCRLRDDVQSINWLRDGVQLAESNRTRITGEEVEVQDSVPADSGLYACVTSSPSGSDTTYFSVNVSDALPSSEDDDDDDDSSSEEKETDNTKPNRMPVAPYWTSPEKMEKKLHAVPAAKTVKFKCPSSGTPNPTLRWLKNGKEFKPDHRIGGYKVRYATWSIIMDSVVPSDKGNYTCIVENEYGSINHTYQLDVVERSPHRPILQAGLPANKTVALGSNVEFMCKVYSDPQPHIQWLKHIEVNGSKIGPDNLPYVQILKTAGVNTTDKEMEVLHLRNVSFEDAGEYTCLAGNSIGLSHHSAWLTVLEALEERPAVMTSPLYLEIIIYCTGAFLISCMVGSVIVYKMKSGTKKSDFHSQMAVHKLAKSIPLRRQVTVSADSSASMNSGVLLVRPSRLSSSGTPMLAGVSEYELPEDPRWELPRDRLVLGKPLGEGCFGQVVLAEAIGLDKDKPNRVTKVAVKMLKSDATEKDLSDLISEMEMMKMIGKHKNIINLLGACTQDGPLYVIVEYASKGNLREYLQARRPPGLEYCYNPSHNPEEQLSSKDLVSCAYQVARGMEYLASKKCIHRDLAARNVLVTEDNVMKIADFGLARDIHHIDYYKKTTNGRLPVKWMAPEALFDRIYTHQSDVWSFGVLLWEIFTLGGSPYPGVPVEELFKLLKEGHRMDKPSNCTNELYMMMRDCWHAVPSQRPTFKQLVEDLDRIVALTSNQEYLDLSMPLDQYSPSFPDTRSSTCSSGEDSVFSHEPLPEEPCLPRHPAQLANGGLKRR
UniProt Q9Y6M4, sequence (whole entry, looked up): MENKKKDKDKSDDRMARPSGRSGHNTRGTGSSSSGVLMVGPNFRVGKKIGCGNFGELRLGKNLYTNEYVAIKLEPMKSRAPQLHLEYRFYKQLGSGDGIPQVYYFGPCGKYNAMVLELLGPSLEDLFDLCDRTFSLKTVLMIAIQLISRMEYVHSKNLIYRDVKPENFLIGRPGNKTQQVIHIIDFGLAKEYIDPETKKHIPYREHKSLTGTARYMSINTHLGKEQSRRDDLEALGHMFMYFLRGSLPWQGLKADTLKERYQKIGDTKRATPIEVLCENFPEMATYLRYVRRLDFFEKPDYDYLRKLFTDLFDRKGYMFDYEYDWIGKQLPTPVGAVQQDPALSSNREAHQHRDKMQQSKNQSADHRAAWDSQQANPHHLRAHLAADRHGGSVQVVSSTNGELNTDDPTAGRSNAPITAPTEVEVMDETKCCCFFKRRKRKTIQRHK
UniProt P10398, sequence (whole entry, looked up): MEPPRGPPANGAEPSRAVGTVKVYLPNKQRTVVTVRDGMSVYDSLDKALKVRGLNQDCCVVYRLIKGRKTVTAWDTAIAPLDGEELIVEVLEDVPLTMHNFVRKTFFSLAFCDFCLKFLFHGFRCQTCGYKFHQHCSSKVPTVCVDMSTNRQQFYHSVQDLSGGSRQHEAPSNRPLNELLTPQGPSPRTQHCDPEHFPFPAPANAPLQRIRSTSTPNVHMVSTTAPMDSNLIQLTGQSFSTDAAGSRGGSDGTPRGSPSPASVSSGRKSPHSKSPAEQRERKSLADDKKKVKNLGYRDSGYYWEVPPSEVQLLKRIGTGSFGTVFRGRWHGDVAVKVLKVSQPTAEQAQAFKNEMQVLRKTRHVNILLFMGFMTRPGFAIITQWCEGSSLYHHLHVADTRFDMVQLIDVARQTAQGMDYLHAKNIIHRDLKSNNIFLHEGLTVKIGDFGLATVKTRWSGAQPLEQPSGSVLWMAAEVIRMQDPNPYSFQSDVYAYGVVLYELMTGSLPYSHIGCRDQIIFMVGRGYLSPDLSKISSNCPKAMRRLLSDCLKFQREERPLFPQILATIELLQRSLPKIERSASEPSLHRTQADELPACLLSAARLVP

Block 1
Target: Interferon regulatory factor 5, full length, phosphomimetic (IRF5, Homo sapiens, UniProt Q13568-2, residues 1-514, K96S/S451D/S453D/S456D/S462D)
Method: protein-binding microarray
Form: double-stranded DNA, one strand shown
Medium: in vitro
Concentration: 250 nM
Notes: 60-bp whole probe
Together with: salmon DNA 0.4 mg/ml
Reference: random background probes
Reading: higher = stronger binding
All sequences stand within: GCCTAGCAC … GTCTTGATTCGCTTGACGCTGCTG
| Sequence | log fluorescence [z-score] |
| --- | --- |
| GACGGTTTCGGTCTCGGCACGTGCTAG | 9.2 |
| TTAGAGATCAGTATCGATTAGTGCTAG | 7.23 |
| TTAGAACTGAGTATCGTTTAGTGCTAG | 3 |
| TCATATTAAAATTTAATACTGTGCTAG | 0.74 |
| TTAGATTTCAGTTCCGTTTAGTGCTAG | 2.66 |
| GACGGTTTCCTTCGCCTGACGTGCTAG | 0.589 |
| GACGGTATCGACACTGGGGAGGTGCTA | 1.61 |
| TTCATTCCTGATCTCTGGTCGTGCTAG | 0.434 |

Block 2
SMILES: COc1ccc2c(O[C@@H]3C[C@H]4C(=O)N[C@]5(C(=O)O)CC5/C=C\CCCCC[C@H](NC(=O)OC5CCCC5)C(=O)N4C3)cc(-c3csc(NC(=O)C(C)C)n3)nc2c1C (stereo partly drawn)
Effect on: cell-free assay
Method: competition with immobilised ligand
Concentration: 1 µM
| target | remaining binding [%] |
| --- | --- |
| Casein kinase I isoform gamma-1 (CSNK1G1, Homo sapiens, UniProt Q9HCP0) | 94 |
| Mitotic checkpoint serine/threonine-protein kinase BUB1 (BUB1, Homo sapiens, UniProt O43683) | 96 |
| Phosphatidylinositol 4,5-bisphosphate 3-kinase catalytic subunit alpha isoform (PIK3CA, Homo sapiens, UniProt P42336, E545K) | 68 |
| Protein-tyrosine kinase 2-beta (PTK2B, Homo sapiens, UniProt Q14289) | 100 |
| Tyrosine-protein kinase SYK (SYK, Homo sapiens, UniProt P43405) | 100 |

Block 3
Variant: D65I
Target: ABI1, truncated, D143A, DHFR fusion (Arabidopsis thaliana)
Method: DHFR PCA, deep sequencing
Medium: yeast
Notes: methotrexate growth selection, single substitutions
Reference: wild-type fitted maximum
Reading: higher = stronger binding
Parent: PYL1, truncated, DHFR fusion (Arabidopsis thaliana); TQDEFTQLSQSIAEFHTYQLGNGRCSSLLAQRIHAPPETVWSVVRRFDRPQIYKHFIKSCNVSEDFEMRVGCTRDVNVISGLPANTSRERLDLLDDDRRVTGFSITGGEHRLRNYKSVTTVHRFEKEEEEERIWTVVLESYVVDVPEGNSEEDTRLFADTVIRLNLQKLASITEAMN; partner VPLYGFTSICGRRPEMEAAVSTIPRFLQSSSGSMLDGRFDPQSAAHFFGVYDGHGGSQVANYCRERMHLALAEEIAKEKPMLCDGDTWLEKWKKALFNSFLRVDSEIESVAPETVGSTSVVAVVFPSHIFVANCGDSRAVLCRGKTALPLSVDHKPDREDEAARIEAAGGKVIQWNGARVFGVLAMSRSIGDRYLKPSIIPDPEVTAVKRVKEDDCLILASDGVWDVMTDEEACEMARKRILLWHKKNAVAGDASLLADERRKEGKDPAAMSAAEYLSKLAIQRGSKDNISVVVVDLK
| conditions | relative binding score [%] |
| --- | --- |
| together with: (+)-ABA 0.39 µM | -1.24 |
| together with: (+)-ABA 0 µM | -3.36 |
| together with: (+)-ABA 200 µM | 84.6 |
| together with: (+)-ABA 0.11 µM | 0.85 |
| together with: (+)-ABA 0.032 µM | -11.9 |
| together with: (+)-ABA 4.8 µM | 17.2 |

Block 4
Structure (SMILES): O=C1NC(=O)c2c1c1c3ccccc3[nH]c1n1cncc21
Effect on: enzyme activity
Mode: inhibitor
Concentration: 0.5 µM
Reference: control
| target | remaining activity |
| --- | --- |
| Ribosomal protein S6 kinase alpha-2 (RPS6KA2, Homo sapiens, UniProt Q15349) | 32.7% |
| Tyrosine-protein kinase ABL2 (ABL2, Homo sapiens, UniProt P42684) | 79.9% |
| Wee1-like protein kinase (WEE1, Homo sapiens, UniProt P30291) | 94.7% |
| Angiopoietin-1 receptor (TEK, Homo sapiens, UniProt Q02763) | 78.9% |
| Serine/threonine-protein kinase A-Raf (ARAF, Homo sapiens, UniProt P10398) | 93.8% |
| Macrophage-stimulating protein receptor (MST1R, Homo sapiens, UniProt Q04912) | 102% |
| Fibroblast growth factor receptor 3 (FGFR3, Homo sapiens, UniProt P22607) | 85% |
| Serine/threonine-protein kinase ULK2 (ULK2, Homo sapiens, UniProt Q8IYT8) | 95.5% |
| Glycogen synthase kinase-3 beta (GSK3B, Homo sapiens, UniProt P49841) | 30.8% |
| Fibroblast growth factor receptor 1 (FGFR1, Homo sapiens, UniProt P11362) | 55.2% |
| Tyrosine-protein kinase JAK3 (JAK3, Homo sapiens, UniProt P52333) | 140% |
| Serine/threonine-protein kinase TAO2 (TAOK2, Homo sapiens, UniProt Q9UL54) | 89.4% |
| Mitogen-activated protein kinase kinase kinase 14 (MAP3K14, Homo sapiens, UniProt Q99558) | 83% |
| Casein kinase I isoform gamma-3 (CSNK1G3, Homo sapiens, UniProt Q9Y6M4) | 87% |

A few entries again (block 4):
| target | remaining activity |
| --- | --- |
| Tyrosine-protein kinase ABL2 (ABL2, Homo sapiens, UniProt P42684) | 79.9% |
| Wee1-like protein kinase (WEE1, Homo sapiens, UniProt P30291) | 94.7% |
| Angiopoietin-1 receptor (TEK, Homo sapiens, UniProt Q02763) | 78.9% |
